# Experimental data gathered from unrelated publications.
# Numbered parts are unrelated; each lists some results of a single study. Several values in a cell are separate wells, animals, samples, runs or records.

# Study 1 — cell line: U-87 MG; tested at: concentration not given; reference: DMSO
# SMILES: CCN1/C(=C/C=C2\CCCC(/C=C/C3=[N+](CC)c4ccccc4C3(C)C)=C2NCCCCCCCCN2CCC(Nc3nc4ccccc4n3Cc3ccc(F)cc3)CC2)C(C)(C)c2ccccc21
refers to,log2 fold change
MAPK10 mRNA,-1.59
CDRT1 mRNA,1.05
CRYBG1 mRNA,-2.04
ADTRP mRNA,1.37
P3H4 mRNA,-1.31
ERLIN2 mRNA,-0.973

# Study 2 — observed: thermal unfolding; technique: differential scanning fluorimetry; tested at: 5.5 µM; reading: higher = more unfolded
# Compound: C[C@@H]1CN(c2ccc(-c3cc(C(=O)NCCOCCOCCOCCOCCNC(=O)Cn4cc(-c5[nH]cc(C(=O)N[C@@H](CC(N)=O)c6ccc(F)c(Cl)c6)c5-c5ccc(Cl)cc5F)cn4)ccc3F)cc2NC(=O)c2c[nH]c(=O)cc2C(F)(F)F)C[C@H](C)N1C
# WDR5: WD repeat-containing protein 5 (WDR5, Homo sapiens, UniProt P61964)
# DCAF1: DDB1- and CUL4-associated factor 1 (DCAF1, Homo sapiens, UniProt Q9Y4B6)
# Sequence of UniProt Q9Y4B6 (whole entry, looked up): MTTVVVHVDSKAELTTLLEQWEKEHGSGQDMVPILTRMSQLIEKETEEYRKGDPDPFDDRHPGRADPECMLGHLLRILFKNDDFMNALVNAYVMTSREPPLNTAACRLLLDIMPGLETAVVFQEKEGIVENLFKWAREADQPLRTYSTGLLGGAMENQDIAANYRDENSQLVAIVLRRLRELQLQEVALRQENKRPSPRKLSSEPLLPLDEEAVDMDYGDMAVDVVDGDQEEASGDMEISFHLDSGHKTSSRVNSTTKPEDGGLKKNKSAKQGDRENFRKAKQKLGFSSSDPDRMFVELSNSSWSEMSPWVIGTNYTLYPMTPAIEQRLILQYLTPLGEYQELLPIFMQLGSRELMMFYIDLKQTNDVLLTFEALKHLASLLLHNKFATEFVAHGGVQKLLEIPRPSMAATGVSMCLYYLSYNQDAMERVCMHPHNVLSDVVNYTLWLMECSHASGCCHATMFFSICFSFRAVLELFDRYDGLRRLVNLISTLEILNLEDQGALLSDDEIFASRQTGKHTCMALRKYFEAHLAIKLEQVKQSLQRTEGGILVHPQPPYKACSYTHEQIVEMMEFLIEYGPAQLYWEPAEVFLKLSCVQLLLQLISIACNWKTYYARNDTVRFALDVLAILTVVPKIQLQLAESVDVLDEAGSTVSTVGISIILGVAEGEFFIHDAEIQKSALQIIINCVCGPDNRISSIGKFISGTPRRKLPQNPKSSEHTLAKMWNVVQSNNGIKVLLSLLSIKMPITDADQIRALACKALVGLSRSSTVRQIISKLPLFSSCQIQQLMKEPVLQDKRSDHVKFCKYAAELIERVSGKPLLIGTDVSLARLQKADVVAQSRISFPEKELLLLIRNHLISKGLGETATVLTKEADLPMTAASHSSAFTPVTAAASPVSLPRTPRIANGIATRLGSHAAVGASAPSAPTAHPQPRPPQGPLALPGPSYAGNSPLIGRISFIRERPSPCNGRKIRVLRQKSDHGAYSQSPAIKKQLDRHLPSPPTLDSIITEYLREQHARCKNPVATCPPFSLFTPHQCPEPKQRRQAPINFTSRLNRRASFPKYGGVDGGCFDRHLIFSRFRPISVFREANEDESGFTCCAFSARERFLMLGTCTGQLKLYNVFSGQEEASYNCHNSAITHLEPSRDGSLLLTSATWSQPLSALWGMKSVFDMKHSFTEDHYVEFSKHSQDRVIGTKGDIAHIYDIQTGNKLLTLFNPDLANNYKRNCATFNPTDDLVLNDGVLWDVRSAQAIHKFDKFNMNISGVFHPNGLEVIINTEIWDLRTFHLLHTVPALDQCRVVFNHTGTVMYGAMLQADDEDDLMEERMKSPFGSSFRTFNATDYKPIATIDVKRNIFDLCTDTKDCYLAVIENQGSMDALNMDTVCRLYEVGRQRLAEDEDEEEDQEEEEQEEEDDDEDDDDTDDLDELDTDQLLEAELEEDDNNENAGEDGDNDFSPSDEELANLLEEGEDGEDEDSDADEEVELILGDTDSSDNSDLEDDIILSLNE
target,temperature,SYPRO Orange fluorescence [a.u.]
WDR5,37 °C,14300
DCAF1,37 °C,9400
WDR5,73.61 °C,9040
WDR5,70.61 °C,7070
WDR5,77.01 °C,14800
DCAF1,87.41 °C,37500
DCAF1,51.6 °C,15500
WDR5,44.2 °C,14500
WDR5,32.2 °C,14400
WDR5,92.61 °C,40800
WDR5,72.01 °C,7590

# Study 3 — organism: Arabidopsis thaliana; strain: Col-0; tested at: 25 µg/mL; notes: seed germination, single repetition
Structure (SMILES),hypocotyl length
CCCN1C(=O)C(O)(C(=O)O)Oc2cc(F)ccc21 (centres unmarked),1.7 cm and 1.8 cm and 1.67 cm and 1.69 cm and 1.77 cm
O=C(O)C1(O)Oc2cc(Br)ccc2N(Cc2ccccc2)C1=O (centres unmarked),1.78 cm and 1.7 cm and 1.73 cm and 1.72 cm and 1.69 cm
CCN1C(=O)C(O)(C(=O)O)Oc2cc(F)ccc21 (centres unmarked),1.79 cm and 1.74 cm and 1.71 cm and 1.76 cm and 1.73 cm
CC(C)=CCN1C(=O)C(O)(C(=O)O)Oc2cc(F)ccc21 (centres unmarked),1.85 cm and 1.86 cm and 1.81 cm and 1.88 cm and 1.82 cm

# Single results of other studies
# PKMYT1: Membrane-associated tyrosine- and threonine-specific cdc2-inhibitory kinase (PKMYT1, Homo sapiens, UniProt Q99640)
# Sequence of UniProt Q99640 (whole entry, looked up): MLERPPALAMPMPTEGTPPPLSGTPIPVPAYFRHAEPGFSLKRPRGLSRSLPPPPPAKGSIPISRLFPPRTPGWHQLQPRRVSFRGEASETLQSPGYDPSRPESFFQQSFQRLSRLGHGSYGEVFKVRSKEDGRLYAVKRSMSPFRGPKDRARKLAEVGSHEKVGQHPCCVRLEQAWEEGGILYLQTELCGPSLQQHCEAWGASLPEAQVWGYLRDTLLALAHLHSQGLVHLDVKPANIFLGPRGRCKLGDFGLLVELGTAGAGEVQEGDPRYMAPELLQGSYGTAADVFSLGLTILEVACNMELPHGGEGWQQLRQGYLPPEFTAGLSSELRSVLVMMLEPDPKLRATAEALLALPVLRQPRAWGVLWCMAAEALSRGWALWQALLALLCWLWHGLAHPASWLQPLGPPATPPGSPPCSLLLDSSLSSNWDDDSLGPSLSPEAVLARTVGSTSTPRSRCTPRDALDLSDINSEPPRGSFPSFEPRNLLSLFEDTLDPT
SMILES,target or system,test,system,setting,how to read,measurement,result
Cc1ccc(O)c(C)c1-c1cnc2[nH]c(-c3cnc(N4CCC(CCN5CCN(c6ccc(N7CCC(=O)NC7=O)cc6F)CC5)CC4)nc3)cc2c1C#N,HCC1569,"in-cell western, refers to: CDK1 phospho-Thr14",,4.57 nM,,pCDK1 (Thr14) level,9.15 RLU and 11.5 RLU
Cc1nc(C)c(C=[N+]([O-])C(C)(C)C)nc1C,,Western blot,MPTP mouse model,30 mg/kg,,pSer473-Akt/total Akt,173 and 139 and 140 and 159
Cc1ccc(O)c(C)c1-c1cnc2[nH]c(-c3cnc(N)nc3)cc2c1C#N,PKMYT1,"enzyme activity, inhibitor",,,,IC50,2 nM
"Cc1ccc(O)c(C)c1-c1cnc2[nH]c(-c3cnc(N4CCC5(CC4)CC(N4CCN(c6ccc(N[C@H]7CCC(=O)NC7=O)cc6F)CC4)CO5)nc3)cc2c1C#N (single isomer, unassigned)",ABL1 non-phosphorylated human,KINOMEscan,,1000 nM,reference: control,binding remaining,67%
Cc1ccc(O)c(C)c1-c1cnc2[nH]c(-c3cnc(N4CCC(CCN5CCN(c6ccc7c(c6)C(=O)N(C6CCC(=O)NC6=O)C7=O)CC5)CC4)nc3)cc2c1C#N (racemic),PKMYT1,"binding, HTRF",,12.35 nM,,inhibition,78.4% and 77.5%

# Repeated from above (study 1):
refers to,log2 fold change
ADTRP mRNA,1.37
CDRT1 mRNA,1.05
